Measurements gathered from unrelated publications.
Protocols differ between the studies behind these lines. ± marks the error that the study gave.

COc1cc(-c2nc3ccccc3s2)cc(CN(C)Cc2ccccn2)c1O
pKa2 (methanol-water; 50 µM, 0.1 M NaCl): 6.39

COc1cc2c(cc1OC)CN(CCCCn1ccc3cc(OCC[18F])ccc31)C2
uptake (ICR mice, male, stomach; intravenous, 60 min): 2.54 ± 0.43 %ID/organ

Oc1ccc2ccccc2c1/N=N/c1ccccc1
stability deviation (rat whole blood extract; 0.2 µg/L, 30 days, -20 °C, long-term storage): 8.5%

NC[C@@H](C(=O)Nc1ccc(-c2cn[nH]c2)cc1)c1ccccc1
conjunctival redness score (OECD 405 eye irritation; New Zealand White rabbit, eye; topical, 0.1%, 25 h (day 2), scale 0 to 3; direction not given): 1

[123I]c1ccc2nc(-c3ccc(-n4ccnn4)nc3)cn2c1
tracer uptake (male Wistar rat, brain; intravenous, 4 MBq, 5 min): 0.788 %ID/g

NCCCC(=O)OCC(=O)c1ccc(O)cc1F.O=C(O)C(F)(F)F
quantum yield (photolysis, item: rearranged acid appearance; aqueous HEPES buffer with LiClO4; pH 8.2): 0.03

Cn1c(=O)oc2ccc(-c3ccc(CC(C#N)NC(=O)C4CNCCCO4)c(F)c3)cc21 (centres unmarked)
ALT increased incidence (human; oral, 10 mg once daily, TEAE, multiple ascending dose): 11.1%

CC(C)c1cnc(-c2cc(Cl)ccc2F)cc1Nc1ccncc1C(=O)NC(CO)CO
patients with related SAE (item: hepatic haemorrhage; human patients; oral, dose not given, grade 5): 0%

CCCC(CCC)NC(=O)c1ccc(OC2OC(C(=O)O)C(O)C(O)C2O)c(O)c1 (centres unmarked)
Cmax ratio (female Sprague-Dawley rats, plasma; oral, 200 mg/kg of parent drug; relative to: 200 over 20 mg/kg dose): 3.05

NCCCC(=O)OCC(=O)c1ccc(O)c(F)c1F.O=C(O)C(F)(F)F
quantum yield (photolysis, item: rearranged acid appearance; unbuffered water): 0.22

CC(C)[C@H](NC(=O)CNC(=O)[C@H](CCC(N)=O)NC(=O)[C@H](C)N)C(=O)O
AUC(0-last) (human, plasma; intravenous infusion, 10 mg/kg single, 15 min infusion, geometric mean): 175 µg·h/L

CCCC[C@H](NC(=O)CNC(=O)CNC(=O)CN1CCN(CC(=O)O)CCN(CC(=O)O)CCN(CC(=O)O)CC1)C(=O)N[C@H]1CC(=O)NCCCC[C@@H](C(N)=O)NC(=O)[C@H](Cc2c[nH]c3ccccc23)NC(=O)[C@H](CCCNC(=N)N)NC(=O)[C@@H](Cc2ccccc2)NC(=O)[C@H](Cc2c[nH]cn2)NC1=O [copper-64 labelled]
tissue uptake (female C57 mouse, B16/F1 melanoma, skin; intravenous, 0.037 MBq, 0.5 h): 2.46 ± 0.4 %ID/g

N=C(N)NCCC[C@@H]1NC(=O)[C@H](Cc2c[nH]c3ccccc23)NC(=O)[C@@H](CC2CCCCC2)NC(=O)[C@@H]2CCCN2C(=O)[C@@H](NC(=O)CCc2ccccc2)CCCNC1=O
elimination rate constant (C57BL/6J mice, spinal cord; subcutaneous, 1 mg/kg, two-compartment model): 0.000347 s⁻¹

CC/C=C\C/C=C\C/C=C\C/C=C\C/C=C\CCCCOC(CC)C(=O)O (centres unmarked)
radioactivity concentration ([14C] label; male Wistar rat, kidney medulla; oral, 100 mg/kg, 8 h): 76.6 µg equiv/g

CC[C@H](C)[C@H](NC(=O)[C@H](CC(C)C)NC(=O)[C@H](Cc1c[nH]c2ccccc12)NC(=O)[C@H](C)NC(=O)[C@@H](NC(=O)[C@H](Cc1ccccc1)NC(=O)[C@H](CC(=O)O)NC(=O)[C@H](CCCNC(=N)N)NC(=O)[C@H](C)NC(=O)[C@H](C)NC(=O)[C@H](CC(C)C)NC(=O)[C@H](C)NC(=O)[C@H](CC(=O)O)NC(=O)[C@H](CC(C)C)NC(=O)[C@@H](NC(=O)[C@@H](NC(=O)[C@H](C)NC(=O)[C@H](CC(C)C)NC(=O)[C@H](CCC(=O)O)NC(=O)[C@H](CO)NC(=O)[C@H](CO)NC(=O)[C@H](Cc1ccccc1)NC(=O)[C@@H](NC(=O)CNC(=O)[C@H](CCC(=O)O)NC(=O)CNC(=O)[C@@H](N)Cc1c[nH]cn1)[C@@H](C)O)[C@@H](C)O)[C@@H](C)CC)[C@@H](C)CC)C(=O)N[C@@H](C)C(=O)N[C@H](C(=O)N[C@@H](CCCCN)C(=O)N[C@H](C(=O)N[C@H](C(=O)N[C@@H](CC(=O)O)C(=O)N[C@@H](CCCCN)C(=O)O)[C@@H](C)O)[C@@H](C)CC)[C@@H](C)O
AUClast (immunoaffinity LC-MS/MS; healthy human subjects, plasma; subcutaneous, 5 mg once weekly, day 36 after 6 doses, steady state, geometric mean): 109 nM·h

CCCC(CCC(=O)O)NC(=O)c1ccc2c(c1)OCO2 (centres unmarked)
Cmax ratio (male Sprague-Dawley rats, plasma; oral, 200 mg/kg of parent drug; relative to: 200 over 20 mg/kg dose): 4.63

CC(C)(O)c1ncc([S@](N)(=O)=NC(=O)Nc2c3c(cc4c2CCC4)CCC3)s1
AUC(0-tau) (healthy human; oral, 100 mg once daily, day 1, spray-dried dispersion, geometric mean): 81900 ng·h/mL

CCCC[C@H](NC(=O)[C@H](CC(C)C)N(C)C(=O)CNC(=O)[C@@H](NC(=O)[C@H](Cc1ccccc1)NC(=O)[C@H](CCCCN)NC(=O)[C@@H](N)CC(=O)O)C(C)C)C(N)=O
diastolic pressure decrease (anaesthetized spinalized rat; IV, 100 µg/kg; relative to: baseline): 30%

O=C(Cn1c(=O)c(Cc2ccccc2)nc2ccccc21)OCCNCCO
safe concentration (MTT; rat primary colonocytes, Albino rat, male; 72 h, concentration at 100% viability): 0.4 ± 0.078 µM

COc1ccc2cc(-c3ccc(-c4ccc(C)cn4)nc3)oc2c1
fluorescence lifetime (TCSPC; dioxane): 1.47 ns

CC(C)[C@H](NC(=O)[C@@H]1CCCN1C(=O)[C@H](CCCNC(=N)N)NC(=O)[C@H](CS)NC(=O)[C@H](Cc1c[nH]c2ccccc12)NC(=O)[C@H](CCCNC(=N)N)NC(=O)[C@@H](Cc1ccccc1)NC(=O)[C@H](Cc1c[nH]cn1)NC(=O)[C@H](CCC(=O)O)NC(=O)[C@H](CS)NC(=O)[C@H](CS)NC(=O)CNC(=O)[C@@H]1CC(=O)N[C@@H](CCCNC(=N)N)C(=O)NCC(=O)N[C@@H](CC(=O)O)C(=O)N[C@H](Cc2ccc(O)cc2)C(=O)N1)C(N)=O [technetium-99m labelled]
tumour to tissue ratio (C57 mouse, female, B16/F1 melanoma; intravenous, 0.037 MBq, 24 h; relative to: tumour over liver): 7.71

Cc1ccccc1/N=N/c1ccc(/N=N/c2c(O)ccc3ccccc23)c(C)c1
measured concentration (extracted rat blood QC samples; 5.0 µg/L, 2 h, room temperature, short-term stability): 5.26 µg/L

COC(=O)CN1CCN(CC(=O)OC)CCN(Cc2cc(-c3nc4ccccc4s3)cc(OC)c2O)CC1
pKa2 (UV-Vis pH titration; 25 °C, ionic strength 0.1 M NaCl): 6.9

Cc1cc2c(NC(=O)N[C@@H]3CC(C)(C)Oc4c(OC(F)(F)F)cccc43)cccc2cn1
hypothermia duration (telemetry; male Sprague-Dawley rats; oral, 100 µmol/kg): ~13 h

CC[C@H](C)[C@H](NC(=O)[C@@H](N)[C@@H](C)O)C(=O)N[C@@H](CCCCN)C(=O)N[C@H](C(=O)N1CCC[C@H]1C(=O)N[C@@H](C)C(=O)NCC(=O)N[C@H](C(=O)O)[C@@H](C)O)[C@@H](C)CC
time to reach limit of detection (LC-MS/MS; human plasma; 37 °C): 2 h

C[C@H](NC(=O)[C@H](Cc1cnc[nH]1)NC(=O)[C@H](CO)NC(=O)[C@@H](N)CC(=O)O)C(=O)N[C@@H](CCCCN)C(=O)N[C@@H](CCCNC(=N)N)C(=O)N[C@@H](Cc1cnc[nH]1)C(=O)N[C@@H](Cc1cnc[nH]1)C(=O)NCC(=O)N[C@@H](Cc1ccc(O)cc1)C(=O)N[C@@H](CCCCN)C(=O)N[C@@H](CCCNC(=N)N)C(=O)N[C@@H](CCCCN)C(=O)N[C@@H](Cc1ccccc1)C(=O)N[C@@H](Cc1cnc[nH]1)C(=O)N[C@@H](CCC(=O)O)C(=O)N[C@@H](CCCCN)C(=O)N[C@@H](Cc1cnc[nH]1)C(=O)N[C@@H](Cc1cnc[nH]1)C(=O)N[C@@H](CO)C(=O)N[C@@H](Cc1cnc[nH]1)C(=O)N[C@@H](CCCNC(=N)N)C(=O)NCC(=O)N[C@@H](Cc1ccc(O)cc1)C(=O)O
time to fragment appearance (cationic PAGE; pooled whole saliva supernatant G1, diluted 1:10; 100 µg/mL, 37 °C): 0.5 h

CCN(CC)C(=O)c1ccc(-c2cc(NCCCN3CCCCC3)c3ccccc3n2)cc1
serum concentration (C57BL/6 mice, male, serum; oral, 0.03% w/w in chow, 5 days): ~680 nM

CC(C)[C@H](NC(=O)[C@@H]1CCCN1C(=O)[C@H](CCCNC(=N)N)NC(=O)[C@H](CS)NC(=O)[C@H](Cc1c[nH]c2ccccc12)NC(=O)[C@H](CCCNC(=N)N)NC(=O)[C@@H](Cc1ccccc1)NC(=O)[C@H](Cc1c[nH]cn1)NC(=O)[C@H](CCC(=O)O)NC(=O)[C@H](CS)NC(=O)[C@H](CS)NC(=O)COCCOCCNC(=O)[C@@H]1CC(=O)N[C@@H](CCCNC(=N)N)C(=O)NCC(=O)N[C@@H](CC(=O)O)C(=O)N[C@H](Cc2ccc(O)cc2)C(=O)N1)C(N)=O [technetium-99m labelled]
tumour-to-tissue ratio (nude mouse, M21 melanoma xenograft, tumour over lung; intravenous, 0.037 MBq, 2 h; relative to: tumour over lung): 2.16 ± 1.43

C=C(C)C(=O)Nc1ccc(-c2c(-c3ccc(Oc4nccc(C)n4)cc3)c3c(N)ncnc3n2C)cc1
half-life (beagle dog, plasma; intravenous): 36.6 min

CN(C)c1ccc(-c2nc3ccc(OCCCCCN4CCN5CCN(CC4)CC(=O)[O][Al]([18F])[O]C(=O)C5)cc3s2)cc1
stomach uptake (ICR mouse; intravenous, dose not given, 60 min): 3.83 ± 1.39 % injected dose/organ

COC(=O)c1ccc(-c2cn(Cc3cc(Cl)ccc3O[11CH3])nn2)cc1
distribution volume (VT) (PET two-tissue compartment model; rhesus monkey, white matter; dose not given): 0.495 mL/cm³

O=c1[nH]c(=O)n(C2OC(CO)C(O)C2O)cc1-n1nnc2c1CCC1C(CO)C1CC2 (mixture of isomers)
brightness (methanol): 0.12 M⁻¹ cm⁻¹
